Published values from different studies.
Protocols differ between the studies behind these lines. Several values in a cell are separate wells, animals, samples, runs or records.
Target: LIM domain kinase 1 (LIMK1, Homo sapiens, UniProt P53667)

CCN1CCN(Cc2ccc(C(=O)Nc3ccc(C)c(NCc4cnc5[nH]ccc5c4OC)c3)cc2C(F)(F)F)CC1  remaining binding (binding, competition with immobilised ligand; 1 µM): 50%
COCC12C(=O)NC3C4(C(OC)CC1O)C1CC5(O)C(OC)C(O)C(OC(C)=O)(C1C5OC(=O)c1ccccc1)C3(O)C(OC)C24 (stereo not shown)  remaining activity (kinase activity, inhibitor, ProQinase kinase profiling; 25 µM; relative to: control): 81% and 85%
Cc1cnc2nc1Nc1cccc(c1)COC/C=C/COCc1cc(ccc1OCCN1CCOCC1)N2  remaining binding (binding; 0.1 µM): 91%
O=C=[N][Ru-4]123([n]4c5ccc(O)cc5c5c6c(c7cc(F)c[n+]1c7c54)C(=O)NC6=O)[S+]1CC[S+]2CC[S+]3CC1 (stereo not shown)  remaining activity (enzyme activity; 100 nM, human enzyme, with: 10 µM ATP; relative to: untreated): 103%
NC(=O)[C@@H](O)C[C@H]1CCc2sc3ncnc(O[C@H]4CC[C@H](N5CCOCC5)CC4)c3c21  inhibition (enzyme activity, inhibitor; 10 µM): 25%
COc1c(OCCCN2CCOCC2)ccc2c1N=C(NC(=O)c1cnc(N)nc1)N1CCN=C21  remaining activity (kinase activity, inhibitor; 1 µM; relative to: untreated control): 102%
C=CC(=O)N1CCc2ccc(-n3c(=O)ccc4cnc5ccc(-c6cnn(C)c6)cc5c43)cc21  remaining binding (KINOMEscan; 1 µM; relative to: DMSO control): 100%
C=CC(=O)Nc1cccc(-c2cnc3[nH]cc(C(=O)NC(C)(C)C)c3n2)c1  inhibition (kinase activity; 0.1 µM): 34% and 33%
N[C@H]1CC[C@H](Nc2nccc(-c3cccnc3Oc3ccc(NC(=O)NC4CC4)c4ccccc34)n2)CC1  log2 LFQ intensity (kinobead competition pulldown; HEK293/HCT116 lysate mixture; 10 µM, 1 h, 4 °C; lower = stronger competition): 24.3 and 24.4
CN1CCN(Cc2ccc(-c3ccc(CO[C@H]4CCC[C@@H]4NC(=O)c4cc(-c5cnn(C)c5)cnc4N)cc3)cc2)CC1  inhibition (enzyme activity, inhibitor; 0.1 µM): 4%
C[C@H]1CN(C(=O)c2cn(-c3ccnc(N)n3)c3cc(C#CC4(O)CCCCC4)ccc23)CCN1  inhibition (cell-free assay, TR-FRET; 1 µM): -6%
COc1cc(Nc2nc(C)cc(-c3cnn4nc(OC)ccc34)n2)cc(C(F)(F)F)c1  remaining activity (inhibitor; 1 µM; relative to: control): 75%
COc1c(Cl)cccc1Nc1c(-c2ccncc2C#C[C@@]2(C)CCCN2C(=O)/C=C/CN(C)C)[nH]c2c1C(=O)NCC2  remaining binding (binding, competition with immobilised ligand; 3 µM): 100%
CC(C)=CC1OC(C)(C)C2C=C3C(=O)C(Cl)=CC(O)C3C3C(O)C4OC4C(=O)C132 (stereo not shown)  remaining binding (cell-free assay, competition with immobilised ligand; 10 µM): 100%
Cc1ccc(-c2c(/C=C(\C#N)C(=O)NC(C)C)n(CCCO)c3ncnc(N)c23)cc1  remaining binding (cell-free assay, competition with immobilised ligand; 1 µM): 97%
Nc1ncc(-c2cc(-c3cnn(CC(F)(F)F)c3)ncc2F)nc1C(=O)NC1CNCC(F)C1 (stereo not shown)  remaining activity (enzyme activity; 1 µM; relative to: DMSO control): 91.7%

Repeated from above:
COc1cc(Nc2nc(C)cc(-c3cnn4nc(OC)ccc34)n2)cc(C(F)(F)F)c1  remaining activity (inhibitor; 1 µM; relative to: control): 75%
Cc1ccc(-c2c(/C=C(\C#N)C(=O)NC(C)C)n(CCCO)c3ncnc(N)c23)cc1  remaining binding (cell-free assay, competition with immobilised ligand; 1 µM): 97%
